Published values gathered from unrelated publications.
A part holds a random share of what one study measured. Changes are numbered by the printed parent chain.

Set 1
Target: Histone acetyltransferase KAT6A, winged helix 1, GST fusion (KAT6A, Homo sapiens, UniProt Q92794, residues 1-85)
Method: protein binding microarray
Form: double-stranded DNA, one strand shown
Sample: in vitro
Concentration: not given
Notes: 8-mer, flanks averaged, mean of 2 arrays, mostly near background
Reference: not given
Direction: higher = stronger binding
Target sequence (chain): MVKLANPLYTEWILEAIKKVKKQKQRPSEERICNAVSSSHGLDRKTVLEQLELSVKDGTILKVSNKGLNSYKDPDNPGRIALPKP
`GAAAGTCA` has an E-score of -0.117.
The E-score of `ACACACCA` is reported as -0.324.
With `AGCCGACT` the E-score was 0.218.
For `GCTTGCCC`, the E-score was -0.037.
`GCATATCA` has an E-score of 0.0672.
The E-score of `GGATCCAA` is reported as -0.0663.

Set 2
Target: CCND3, cyclin fold, Cln2 fusion (human)
Method: yeast growth competition, sequencing
Sample: yeast
Notes: weak parent motif
Reference: not given
Direction: higher = stronger binding
Starting sequence: E2F1 docking peptide (human); PPVKRRLDLETDH; partner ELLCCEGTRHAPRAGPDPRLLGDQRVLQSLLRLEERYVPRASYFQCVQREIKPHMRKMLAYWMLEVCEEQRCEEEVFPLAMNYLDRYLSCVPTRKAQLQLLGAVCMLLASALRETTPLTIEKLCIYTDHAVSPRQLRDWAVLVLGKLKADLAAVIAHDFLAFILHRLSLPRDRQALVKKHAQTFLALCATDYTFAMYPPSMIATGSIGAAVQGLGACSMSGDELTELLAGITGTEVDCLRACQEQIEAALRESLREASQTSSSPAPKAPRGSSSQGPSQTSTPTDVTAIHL
For `PPVKSRLDLETDH [R5S]`, “normalised enrichment score” read 0.0808.
`PPVQRRLDLETDH [K4Q]` — result for “normalised enrichment score”: 0.172.
Under “normalised enrichment score”, `PVVKRRLDLETDH [P2V]` is recorded as 0.0886.
For `PPVKRRLDLCTDH [E10C]`, “normalised enrichment score” read 0.144.
For `PPVKARADLETDH [R5A L7A]`, “normalised enrichment score” read -0.0237.

Set 3
Target: Sal-like protein 4, full length isoform B (SALL4, Homo sapiens, UniProt Q9UJQ4-2, residues 1-616)
Method: universal PBM
Form: double-stranded DNA, one strand shown
Sample: in vitro
Concentration: not given
Notes: 8-mer, flanks averaged, mean of replicates
Direction: higher = stronger binding
Residues (chain): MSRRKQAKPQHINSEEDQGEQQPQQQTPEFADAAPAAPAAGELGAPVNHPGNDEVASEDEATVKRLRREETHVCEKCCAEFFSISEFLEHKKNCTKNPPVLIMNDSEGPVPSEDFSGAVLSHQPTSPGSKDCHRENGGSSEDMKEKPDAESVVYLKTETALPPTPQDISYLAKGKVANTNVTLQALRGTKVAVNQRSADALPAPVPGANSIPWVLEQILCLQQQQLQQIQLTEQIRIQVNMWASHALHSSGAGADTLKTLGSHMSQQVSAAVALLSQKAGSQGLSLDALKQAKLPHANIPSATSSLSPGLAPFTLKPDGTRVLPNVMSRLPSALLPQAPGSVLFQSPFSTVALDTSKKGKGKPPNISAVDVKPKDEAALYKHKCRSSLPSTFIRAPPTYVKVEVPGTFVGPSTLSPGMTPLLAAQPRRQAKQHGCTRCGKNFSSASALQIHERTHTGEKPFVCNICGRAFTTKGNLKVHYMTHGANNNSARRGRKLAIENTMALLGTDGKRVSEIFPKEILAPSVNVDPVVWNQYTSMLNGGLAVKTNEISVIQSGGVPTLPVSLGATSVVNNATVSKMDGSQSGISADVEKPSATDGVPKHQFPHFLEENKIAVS
For `ATCACCGC`, the E-score was -0.115.
The E-score of `AGCAACGA` is reported as 0.032.
`ATTCGCTA` gave an E-score of 0.0584.
With `ACCTATAG` the E-score was 0.0838.
The E-score of `GGAAGGAA` is reported as -0.0929.
`CGGTTGGA` has an E-score of -0.209.
`AACGTTGA` gave an E-score of 0.0723.
`CTAACGGC` has an E-score of -0.0514.

Single results of other studies
With `PhoQ, residues 284 288 289 292 302 303 SASVAL` the fold induction was 0.855 (PhoP, residues 12 14 15 18 19 NIMAP (Escherichia coli, UniProt P23836); Sort-seq, refers to: YFP reporter; E. coli; PhoQ-PhoP variant library, added: 10 µM Mg2+; reference: high Mg2+ state, higher = stronger signaling).
